Assay results of several laboratories.
Parts stem from different laboratories: compare values within a part only. Substitutions count along the parent as printed.
Sequence of UniProt Q8LAL2 (whole entry, looked up): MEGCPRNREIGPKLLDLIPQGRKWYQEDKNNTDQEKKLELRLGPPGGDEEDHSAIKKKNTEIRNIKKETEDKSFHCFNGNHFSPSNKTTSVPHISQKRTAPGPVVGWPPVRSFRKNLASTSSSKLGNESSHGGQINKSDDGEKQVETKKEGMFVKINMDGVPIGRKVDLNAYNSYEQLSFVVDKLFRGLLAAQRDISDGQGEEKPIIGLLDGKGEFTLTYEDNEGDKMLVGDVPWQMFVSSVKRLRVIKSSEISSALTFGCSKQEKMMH
Sequence of UniProt Q9FX25 (whole entry, looked up): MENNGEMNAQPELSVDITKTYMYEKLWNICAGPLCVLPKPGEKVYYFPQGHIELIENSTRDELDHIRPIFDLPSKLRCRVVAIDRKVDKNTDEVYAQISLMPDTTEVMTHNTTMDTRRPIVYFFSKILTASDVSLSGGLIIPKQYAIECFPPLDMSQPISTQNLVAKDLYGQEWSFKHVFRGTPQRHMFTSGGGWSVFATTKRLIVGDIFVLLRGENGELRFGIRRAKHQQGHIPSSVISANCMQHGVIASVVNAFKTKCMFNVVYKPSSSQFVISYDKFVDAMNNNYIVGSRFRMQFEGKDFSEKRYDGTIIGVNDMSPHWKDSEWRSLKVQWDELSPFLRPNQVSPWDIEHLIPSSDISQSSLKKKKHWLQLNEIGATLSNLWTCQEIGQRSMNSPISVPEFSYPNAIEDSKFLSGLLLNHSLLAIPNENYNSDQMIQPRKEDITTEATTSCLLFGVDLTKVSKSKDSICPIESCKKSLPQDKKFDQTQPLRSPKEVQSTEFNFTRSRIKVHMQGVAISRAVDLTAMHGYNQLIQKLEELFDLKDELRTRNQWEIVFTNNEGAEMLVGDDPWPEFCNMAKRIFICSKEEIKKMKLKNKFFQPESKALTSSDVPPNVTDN
Sequence of UniProt Q93WC4 (whole entry, looked up): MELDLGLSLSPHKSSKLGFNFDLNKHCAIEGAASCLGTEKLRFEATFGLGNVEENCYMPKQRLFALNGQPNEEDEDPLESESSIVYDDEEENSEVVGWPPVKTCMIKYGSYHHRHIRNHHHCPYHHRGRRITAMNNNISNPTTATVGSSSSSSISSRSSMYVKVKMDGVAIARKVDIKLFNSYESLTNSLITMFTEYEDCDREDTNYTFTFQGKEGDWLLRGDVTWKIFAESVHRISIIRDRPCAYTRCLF

Block 1 — technique: two-hybrid; relative to: out of 4 tests; reading: higher = firmer interaction
Partner: ARF14 497-605 (Arabidopsis thaliana, UniProt Q9LQE8)
Target sequence (chain): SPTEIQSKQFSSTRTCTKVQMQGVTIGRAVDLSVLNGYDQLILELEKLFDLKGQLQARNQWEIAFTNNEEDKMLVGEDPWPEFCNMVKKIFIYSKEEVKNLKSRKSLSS
Molecule | positive tests
ARF13 (Arabidopsis thaliana, UniProt Q9FX25) | 0
IAA29 (Arabidopsis thaliana, UniProt Q93WC4) | 0
IAA26 (Arabidopsis thaliana, UniProt Q8LAL2) | 0

Block 2 — target: CCNE2, cyclin fold, Cln2 fusion (human); technique: yeast growth competition, sequencing; sample: yeast; notes: strong parent motif; relative to: not given; reading: higher = stronger binding
Starting sequence: viral docking peptide; KGVKRKLFAEDSS; partner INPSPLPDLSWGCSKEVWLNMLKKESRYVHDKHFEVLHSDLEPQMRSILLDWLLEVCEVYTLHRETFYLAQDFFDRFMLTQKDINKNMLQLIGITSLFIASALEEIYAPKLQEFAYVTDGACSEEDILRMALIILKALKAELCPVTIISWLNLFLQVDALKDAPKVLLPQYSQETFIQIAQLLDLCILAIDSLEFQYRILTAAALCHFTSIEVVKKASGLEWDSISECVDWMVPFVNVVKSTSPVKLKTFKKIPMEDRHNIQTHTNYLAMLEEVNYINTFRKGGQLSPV
Change | normalised enrichment score
KGVKRYLFAEDSS [K6Y] | 1.34
KGVKAKLFAEDSS [R5A] | 0.865
KGVKKKLLAEDSS [R5K F8L] | 0.469

Block 3 — technique: DHFR PCA, dose-response; sample: yeast; added: (+)-ABA, dose series; reading: lower = more sensitive
Target: ABI1, truncated, D143A, DHFR fusion (Arabidopsis thaliana, UniProt P49597)
Notes: Hill fit, not affinity, not high confidence
Starting sequence: PYL1, truncated, DHFR fusion (Arabidopsis thaliana, UniProt Q8VZS8); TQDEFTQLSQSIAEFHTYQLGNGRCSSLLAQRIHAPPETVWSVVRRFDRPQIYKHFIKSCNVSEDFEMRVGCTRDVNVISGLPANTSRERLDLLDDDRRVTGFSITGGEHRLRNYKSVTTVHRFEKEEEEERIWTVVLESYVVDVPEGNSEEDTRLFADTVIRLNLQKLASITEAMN
Change | ABA EC50 [µM]
F56R | 535
L82Y | 18
A158W | 0.205
V44P | 8.01
F103P | 2.09
R113P | 0.413
V76D | 0.21
V118P | 32.8

Block 4 — target: UBE2D4 UBC core domain (UniProt Q9Y2X8); technique: yeast two-hybrid; sample: yeast; notes: mostly zero background; relative to: not given; reading: higher = stronger interaction
Sequence of UniProt Q9Y2X8 (whole entry, looked up): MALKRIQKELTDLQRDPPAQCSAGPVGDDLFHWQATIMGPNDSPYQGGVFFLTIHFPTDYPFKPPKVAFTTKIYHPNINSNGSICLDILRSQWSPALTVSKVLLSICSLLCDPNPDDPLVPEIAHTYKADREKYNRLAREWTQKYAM
B1: MAP3K1 RING domain (UniProt Q13233); chain NSIKDEEEQMCPICLLGMLDEESLTVCEDGCRNKLHHHCMSIWAEECRRNREPLICPLCRSKWRSHDFYS
B2: MDM4 RING domain (UniProt O15151); chain MEDCQNLLKPCSLCEKRPRDGNIIHGRTGHLVTCFHCARRLKKAGASCPICKKEIQLVIKVF
Sequence | lacZ reporter activity
B1 (MAP3K1 RING domain) | 14600
GSRLQEINDVCAICYHEFTTSARITPCNHYFHALCLRKWLYIQDTCPMCHQKVYIEDDIK (RNF139 RING domain (UniProt Q8WU17)) | 0
B2 (MDM4 RING domain) | 0
